Measured values pooled from the literature.
Protocols differ between the studies behind these lines. ± marks the error that the study gave.
U2AF2: U2AF2 148-342 (Homo sapiens, UniProt P26368)
Sequence of UniProt P26368 (whole entry, looked up): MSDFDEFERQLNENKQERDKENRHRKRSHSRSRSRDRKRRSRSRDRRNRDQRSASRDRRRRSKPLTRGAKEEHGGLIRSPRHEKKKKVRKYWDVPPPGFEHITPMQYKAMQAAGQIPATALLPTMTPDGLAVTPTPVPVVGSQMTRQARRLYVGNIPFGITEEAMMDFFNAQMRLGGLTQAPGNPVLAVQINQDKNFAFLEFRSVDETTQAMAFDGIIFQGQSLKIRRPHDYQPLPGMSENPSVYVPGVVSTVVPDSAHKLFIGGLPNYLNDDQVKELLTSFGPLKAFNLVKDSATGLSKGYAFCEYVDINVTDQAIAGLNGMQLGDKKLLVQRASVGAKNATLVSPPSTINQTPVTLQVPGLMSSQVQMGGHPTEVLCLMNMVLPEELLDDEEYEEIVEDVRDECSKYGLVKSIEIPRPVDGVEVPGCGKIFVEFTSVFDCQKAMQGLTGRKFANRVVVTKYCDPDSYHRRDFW
B1: CYP4F3 A27G/C46R/I34V/M14V/R49Q/W12G (Homo sapiens, UniProt Q08477); chain MALLLAVFLLGPVAASPWLLLLLVGGSWLLARVLAWTYTFYDNCRRLQCFPQPPKRNWFLGHLGLIHSSEEGLLYTQSLACTFGDMCCWWVGPWHAIVRIFHPTYIKPVLFAPAAIVPKDKVFYSFLKPWLGDGLLLSAGEKWSRHRRMLTPAFHFNILKPYMKIFNESVNIMHAKWQLLASEGSARLDMFEHISLMTLDSLQKCVFSFDSHCQEKPSEYIAAILELSALVTKRHQQILLYIDFLYYLTPDGQRFRRACRLVHDFTDAVIQERRRTLPSQGVDDFLQAKAKSKTLDFIDVLLLSKDEDGKKLSDEDIRAEADTFMFEGHDTTASGLSWVLYHLAKHPEYQERCRQEVQELLKDREPKEIEWDDLAQLPFLTMCIKESLRLHPPVPAVSRCCTQDIVLPDGRVIPKGIICLISVFGTHHNPAVWPDPEVYDPFRFDPKNIKERSPLAFIPFSAGPRNCIGQAFAMAEMKVVLGLTLLRFRVLPDHTEPRRKPELVLRAEGGLWLRVEPLS
B2: enzyme H459A (Methanosarcina mazei, UniProt Q8PVB1); chain MSEQRSVPLREHLLALKPCRHGGLIQETSETYGIPENEILDFSANFNPLGSPFDYPENGLNFEDIIKKSCGKLLEYPDNRYVEFREAAARFVGLGVTPQSIVPGNGSTEIVRLVVESVIEKGDKVLLPWPTFGEYEMQCRITGAEPVCPSQEEVNTLPDEVLEEAKILFICNPNNPTGKLRTREELKVLAERCREHKTLLYVDEAFIELSDPSQSVADLPAENNYVFVMRSLTKDFAIPGIRMGFGIAPPAMADILNTARLSWNLGAIANNTGIALLNIEGGIDSPYLKKAREMILKEGETLKAKIDRIRGFEAGEVNVNFILVDVSKFMLNSSELTARLAARGVLVRDCVSFHGLGKNYIRVAVRTEKENDRLIAAIGDVITEWGREQAKNELQHVIEKASEEGIGGRKTCEYYPCHFEGQNCTFCFCPFYPCENEKTGGKWIQSSRGGRVWSCVDCALVHKKEIAQKILDCLMHEGDTDELVKVAWKEVMEPIL
B3: gdhA W89F (Thermococcus profundus, UniProt O74024); chain MVEIDPFEMAVKQLERAAQYMDISEEALEWLKKPMRIVEVSVPIEMDDGSVKVFTGFRVQHNWARGPTKGGIRWHPAETLSTVKALATFMTWKVAVVDLPYGGGKGGIIVNPKELSEREQERLARAYIRAVYDVIGPWTDIPAPDVYTNPKIMGWMMDEYETIMRRKGPAFGVITGKPLSIGGSLGRGTATAQGAIFTIREAAKALGIDLKGKKIAVQGYGNAGYYTAKLAKEQLGMTVVAVSDSRGGIYNPDGLDPDEVLKWKREHGSVKDFPGATNITNEELLELEVDVLAPAAIEEVITEKNADNIKAKIVAEVANGPVTPEADDILREKGILQIPDFLCNAGGVTVSYFEWVQNINGYYWTEEEVREKLDKKMTKAFWEVYNTHKDKNIHMRDAAYVVAVSRVYQAMKDRGWVKK
B4: enzyme (Pseudomonas aeruginosa, UniProt Q9I6F6); chain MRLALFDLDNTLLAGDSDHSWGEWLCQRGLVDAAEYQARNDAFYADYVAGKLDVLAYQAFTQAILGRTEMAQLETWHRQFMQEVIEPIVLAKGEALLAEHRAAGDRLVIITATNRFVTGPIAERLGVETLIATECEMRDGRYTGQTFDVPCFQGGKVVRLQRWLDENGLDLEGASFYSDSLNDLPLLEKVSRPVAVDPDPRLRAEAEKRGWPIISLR
B5: bxlB (Aspergillus nidulans, UniProt Q5ATH9); chain NYPDCTTGPLSELPICDTSLSPLERAKSLVSALTLEEKINNTGHEAAGSSRLGLPAYNWWNEALHGVAEKHGVSFEESGDFSYATSFPAPIVLGAAFNDALIRRVAEIISTEARAFSNSDHAGIDYWTPNVNPFKDPRWGRGQETPGEDPLHCSRYVKEFVGGLQGDDPEKPKVVATCKHLAAYDLEEWGGVSRFEFDAKVSAVDLLEYYLPPFKTCAVDASVGAFMCSYNALNGVPACADRYLLQTVLREHWGWEGPGHWVTGDCGAVERIQTYHHYVESGPEAAAAALNAGVDLDCGTWLPSYLGEAERQGLISNETLDAALTRLYTSLVQLGYFDPAEGQPLRSLGWDDVATSEAEELAKTVAIQGTVLLKNIDWTLPLKANGTLALIGPFINFTTELQSNYAGPAKHIPTMIEAAERLGYNVLTAPGTEVNSTSTDGFDDALAIAAEADALIFFGGIDNTVEEESLDRTRIDWPGNQEELILELAELGRPLTVVQFGGGQVDDSALLASAGVGAIVWAGYPSQAGGAGVFDVLTGKAAPAGRLPITQYPKSYVDEVPMTDMNLQPGTDNPGRTYRWYEDAVLPFGFGLHYTTFNVSWAKKAFGPYDAATLARGKNPSSNIVDTFSLAVTNTGDVASDYVALVFASAPELGAQPAPIKTLVGYSRASLIKPGETRKVDVEVTVAPLTRATEDGRVVLYPGEYTLLVDVNDEYPTAKFEIKGDVQVLEKFPLSGNDSD
B6: valA (Streptomyces hygroscopicus, UniProt H2K887); chain MTMTKQSSLSPGSRLYDYTTQDGAAWRVSALKEVSYDVVVQPRLLDPANPALADALSSGTTPARRLIVIDATVRSLYGEQLAAYLAGHDVEFHLCVIDAHESAKVMETVFEVVDAMDAFGVPRRHAPVLAMGGGVLTDIVGLAASLYRRATPYVRIPTTLIGMIDAGIGAKTGVNFREHKNRLGTYHPSSLTLIDPGFLATLDARHLRNGLAEILKVALVKDAELFDLLEGHGASLVEQRMQPGEGGTGGAALTVLRRAVQGMLEELQPNLWEHQLRRLVDFGHSFSPSVEMAALPELLHGEAVCIDMALSSVLAHHRGLLTEAELGRVLDVMRLLHLPVLHPVCTPDLMRAALADTVKHRDGWQHMPLPRGIGDAVFVNDVTQREIEAALLTLAERDRVPRWRALHGAVDMGV
B7: acsA (Pseudomonas chlororaphis, UniProt Q5CD72); chain MRDYEHVVESFDYLQSATQDLHGELTALNACVECCDRHAHGEAVALYCEAQDGHAERYRFRDLQRQAARFGNFLREQGVKPGDRVAGLMPRTVELLIAILGTWRIGAVYQPLFTAFGPKAIEQRLNCSNARWIVTDPHNRPKLDDVTDCPSIVVTGGAPQNPADHHFWSALNRQADDCAPVLLDASAPFLLMCTSGTTGPAKPLEVPLSAILAFKGYMRDAIDLRADDRFWNLADPGWAYGLYYAVTGPLACGYATLFYDGPFTVESTRHIIAKYAINNLAGSPTAYRFLIAAGAEFADAVRGRLRAVSSAGEPLNPQVVRWFAEQLGVVIHDHYGQTEIGMVLCNHHGLRHPVREGSAGYAVPGYRIVVLDKAHRELPAGQPGVLAVDRERSPLCWFDGYLGMPTQAFAGRYYLSGDIVELNDDGSISFVGRNDDLITTSGYRVGPFDVESALIEHPAVVEAAVIGKPDPQRTELIKAFVVLNTPYLPSPELAEELRLHVRQRLAAHAYPREMEFVDHLPKTPSGKLQRFILRNQEIAKQQALG
B8: enzyme (Bacteroides fragilis, UniProt Q5LAA3); chain MAMLEKIQETAAFLKGKMHTSPETAIILGTGLGSLANEITEKYEIKYEDIPNFPVSTVEGHSGKLIFGKLGNKEIMAMQGRFHYYEGYSMKEVTFPVRVMRELGIKTLFVSNASGGTNPEFEIGDLMIITDHINYFPEHPLRGKNIPYGPRFPDMSEAYDKELIRKADAIAAEKGIKVQHGIYIGTQGPTFETPAEYKLFHILGADAVGMSTVPEVIVANHCGIKVFGISVVTDLGVEGKIVEVSHEEVQKAADAAQPKMTTIMRELINRA
B9: enzyme (Arabidopsis thaliana, UniProt Q9SRM3); chain MNNLDEIKIESKTCLNDQEQEVKIDNMHMSDQDKNKIEIKNKSGLGEKWPEPIVRVQSLAESNLTSLPDRYIKPPSQRPQTTIIDHQPEVADINIPIIDLDSLFSGNEDDKKRISEACREWGFFQVINHGVKPELMDAARETWKSFFNLPVEAKEVYSNSPRTYEGYGSRLGVEKGAILDWNDYYYLHFLPLALKDFNKWPSLPSNIREMNDEYGKELVKLGGRLMTILSSNLGLRAEQLQEAFGGEDVGACLRVNYYPKCPQPELALGLSPHSDPGGMTILLPDDQVVGLQVRHGDTWITVNPLRHAFIVNIGDQIQILSNSKYKSVEHRVIVNSEKERVSLAFFYNPKSDIPIQPMQQLVTSTMPPLYPPMTFDQYRLFIRTQGPRGKSHVESHISPR
B10: mortalin (human); sequence looked up; chain ASEAIKGAVVGIDLGTTNSCVAVMEGKQAKVLENAEGARTTPSVVAFTADGERLVGMPAKRQAVTNPNNTFYATKRLIGRRYDDPEVQKDIKNVPFKIVRASNGDAWVEAHGKLYSPSQIGAFVLMKMKETAENYLGHTAKNAVITVPAYFNDSQRQATKDAGQISGLNVLRVINEPTAAALAYGLDKSEDKVIAVYDLGGGTFDISILEIQKGVFEVKSTNGDTFLGGEDFDQALLRHIVKEFKRETGVDLTKDNMALQRVREAAEKAKCELSSSVQTDINLPYLTMDSSGPKHLNMKLTRAQFEGIVTDLIRRTIAPCQKAMQDAEVSKSDIGEVILVGGMTRMPKVQQTVQDLFGRAPSKAVNPDEAVAIGAAIQGGVLAGDVTDVLLLDVTPLSLGIETLGGVFTKLINRNTTIPTKKSQVFSTAADGQTQVEIKVCQGEREMAGDNKLLGQFTLIGIPPAPRGVPQIEVTFDIDANGIVHVSAKDKGTGREQQIVIQSSGGLSKDDIENMVKNAEKYAEEDRRKKERVEAVNMAEGIIHDTETKMEEFKDQLPADECNKLKEEISKMRELLARKDSETGENIRQAASSLQQASLKLFEMAYKKMASEREGSGSSGTGEQKEDQKEEKQ
Sequence of UniProt Q8NBN7 (whole entry, looked up): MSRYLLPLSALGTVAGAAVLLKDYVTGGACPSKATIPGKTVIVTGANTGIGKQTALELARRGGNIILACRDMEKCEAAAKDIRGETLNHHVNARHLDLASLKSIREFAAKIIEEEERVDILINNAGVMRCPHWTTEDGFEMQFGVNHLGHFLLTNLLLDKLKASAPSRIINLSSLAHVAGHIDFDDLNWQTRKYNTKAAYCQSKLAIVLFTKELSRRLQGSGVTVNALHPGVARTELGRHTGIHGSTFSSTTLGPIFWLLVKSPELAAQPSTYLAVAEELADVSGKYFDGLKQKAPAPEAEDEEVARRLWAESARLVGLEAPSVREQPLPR
Sequence of UniProt P09546 (whole entry, looked up): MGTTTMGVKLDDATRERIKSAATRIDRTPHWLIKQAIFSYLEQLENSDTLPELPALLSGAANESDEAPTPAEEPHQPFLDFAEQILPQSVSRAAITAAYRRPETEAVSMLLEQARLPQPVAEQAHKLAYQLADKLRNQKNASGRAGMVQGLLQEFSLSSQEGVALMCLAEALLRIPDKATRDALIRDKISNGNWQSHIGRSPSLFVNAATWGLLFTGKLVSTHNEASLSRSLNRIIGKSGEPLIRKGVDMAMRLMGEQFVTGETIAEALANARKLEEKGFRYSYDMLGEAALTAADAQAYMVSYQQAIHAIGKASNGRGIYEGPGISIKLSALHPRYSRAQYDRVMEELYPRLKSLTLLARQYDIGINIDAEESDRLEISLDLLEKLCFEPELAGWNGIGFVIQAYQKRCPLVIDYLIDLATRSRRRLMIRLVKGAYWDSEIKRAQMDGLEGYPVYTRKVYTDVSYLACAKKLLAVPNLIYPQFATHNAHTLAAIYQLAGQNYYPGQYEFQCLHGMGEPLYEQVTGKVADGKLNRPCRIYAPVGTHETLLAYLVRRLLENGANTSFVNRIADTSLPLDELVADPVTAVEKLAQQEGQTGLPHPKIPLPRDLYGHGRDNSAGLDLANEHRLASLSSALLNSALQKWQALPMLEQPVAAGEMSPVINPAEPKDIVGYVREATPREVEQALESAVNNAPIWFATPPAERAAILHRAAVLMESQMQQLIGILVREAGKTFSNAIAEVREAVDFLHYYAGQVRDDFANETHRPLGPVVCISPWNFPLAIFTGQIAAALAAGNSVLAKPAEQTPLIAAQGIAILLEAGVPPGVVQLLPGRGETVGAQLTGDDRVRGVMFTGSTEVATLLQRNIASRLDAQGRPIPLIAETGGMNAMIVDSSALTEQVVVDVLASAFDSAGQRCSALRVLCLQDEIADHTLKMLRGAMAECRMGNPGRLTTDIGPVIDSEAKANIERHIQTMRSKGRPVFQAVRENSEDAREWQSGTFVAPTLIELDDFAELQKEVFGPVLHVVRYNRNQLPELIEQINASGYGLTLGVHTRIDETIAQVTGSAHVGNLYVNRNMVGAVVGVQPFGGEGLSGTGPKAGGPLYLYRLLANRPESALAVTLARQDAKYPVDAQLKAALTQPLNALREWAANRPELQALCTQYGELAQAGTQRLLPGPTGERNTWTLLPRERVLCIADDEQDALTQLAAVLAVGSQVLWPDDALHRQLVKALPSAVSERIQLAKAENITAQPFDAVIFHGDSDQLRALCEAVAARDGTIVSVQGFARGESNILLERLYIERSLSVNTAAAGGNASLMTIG
Sequence of UniProt P39597 (whole entry, looked up): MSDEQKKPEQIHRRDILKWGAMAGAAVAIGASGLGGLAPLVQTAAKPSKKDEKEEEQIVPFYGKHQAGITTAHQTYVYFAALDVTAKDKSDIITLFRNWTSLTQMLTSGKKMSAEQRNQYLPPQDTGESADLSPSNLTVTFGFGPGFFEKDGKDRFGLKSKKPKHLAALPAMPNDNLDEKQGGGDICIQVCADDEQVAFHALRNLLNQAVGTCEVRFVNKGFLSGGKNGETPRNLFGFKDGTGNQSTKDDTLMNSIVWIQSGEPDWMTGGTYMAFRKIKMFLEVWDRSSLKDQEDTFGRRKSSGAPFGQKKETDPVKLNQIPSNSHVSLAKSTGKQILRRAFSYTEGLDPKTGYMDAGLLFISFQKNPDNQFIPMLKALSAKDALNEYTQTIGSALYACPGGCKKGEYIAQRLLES

B1  kcat (CCCCC/C=C\C[C@@H](O)/C=C/C=C/C=C\[C@@H](O)CCCC(=O)O; steady-state kinetics; pH 7.4): 0.00783 s⁻¹
UUGUUUUGC (ssRNA)  Kd (U2AF2; sequencing of bound RNA; RNA; motif only): 1.59 µM
putA (Escherichia coli, UniProt P09546)  kcat (COC1=C(OC)C(=O)C(C/C=C(\C)CCC=C(C)C)=C(C)C1=O; steady-state kinetics; pH 7.4, 20 °C, with: proline 200 mM): 1.4 ± 0.1 s⁻¹
B2 (enzyme H459A)  kcat (Nc1ncnc2c1ncn2[C@@H]1O[C@H](COP(=O)(O)OP(=O)(O)OP(=O)(O)O)[C@@H](O)[C@H]1O; steady-state kinetics; pH 8.5, 25 °C, apparent, anoxic, with: L-Thr 10 mM): 0.027 ± 0.001 s⁻¹
B3 (gdhA W89F)  kcat (NC(=O)c1ccc[n+]([C@@H]2O[C@H](COP(=O)(O)OP(=O)(O)OC[C@H]3O[C@@H](n4cnc5c(N)ncnc54)[C@H](OP(=O)(O)O)[C@@H]3O)[C@@H](O)[C@H]2O)c1; steady-state kinetics; pH 7.5, 20 °C, per site): 0.0733 ± 0.0003 s⁻¹
GCUUUUGUA (ssRNA)  Kd (U2AF2; sequencing of bound RNA; RNA; motif only): 0.9 µM
efeB (Bacillus subtilis, UniProt P39597)  kcat (Nc1c(S(=O)(=O)O)cc(Nc2cccc(S(=O)(=O)CCOS(=O)(=O)O)c2)c2c1C(=O)c1ccccc1C2=O; steady-state kinetics; pH 4, 25 °C, apparent): 1.5 ± 0.1 s⁻¹
B4 (enzyme)  kcat (N[C@H](COP(=O)(O)O)Cc1c[nH]cn1; steady-state kinetics; pH 7.8, 25 °C): 8.6 ± 0.2 s⁻¹
B5 (bxlB)  kcat (O=[N+]([O-])c1ccc(O[C@@H]2OC[C@@H](O)[C@H](O)[C@H]2O)cc1; steady-state kinetics; pH 5, 50 °C): 15.2 s⁻¹
RDH13 (Homo sapiens, UniProt Q8NBN7)  kcat (CC1=C(/C=C/C(C)=C/C=C/C(C)=C/C=O)C(C)(C)CCC1; steady-state kinetics; pH 7.4, 37 °C): 0.673 ± 0.0717 s⁻¹
B6 (valA)  kcat (O=C(CO)[C@@H](O)[C@H](O)[C@H](O)[C@H](O)COP(=O)(O)O; steady-state kinetics; pH 7.5, 28 °C): 0.01 ± 0.00167 s⁻¹
human dynamin-1-like protein  log2 fold change (PP6C (human); co-immunoprecipitation, IP-MS; CYB5R4 knockout cells; concentration not given; relative to: CYB5R4 knockout over parental): -0.32
B7 (acsA)  kcat (CC(C)CC(=O)O; steady-state kinetics; pH 7): 0.123 ± 0.00167 s⁻¹
B8 (enzyme)  kcat (OC[C@H]1O[C@@H](n2cnc3c(O)ncnc32)[C@H](O)[C@@H]1O; steady-state kinetics): 22 ± 0.4 s⁻¹
B9 (enzyme)  kcat (CC/C=C\C[C@@H]1C(=O)CC[C@@H]1CC(=O)O; steady-state kinetics; pH 7.5, 20 °C): 0.000261 s⁻¹
B10 (mortalin)  log2 fold change (PP6C (human); co-immunoprecipitation, IP-MS; CYB5R4 knockout cells; concentration not given; relative to: CYB5R4 knockout over parental): -0.38
